Results pooled from the literature.
Parts stem from different laboratories: compare values within a part only.
Chain of UniProt Q9HC98 (whole entry, looked up): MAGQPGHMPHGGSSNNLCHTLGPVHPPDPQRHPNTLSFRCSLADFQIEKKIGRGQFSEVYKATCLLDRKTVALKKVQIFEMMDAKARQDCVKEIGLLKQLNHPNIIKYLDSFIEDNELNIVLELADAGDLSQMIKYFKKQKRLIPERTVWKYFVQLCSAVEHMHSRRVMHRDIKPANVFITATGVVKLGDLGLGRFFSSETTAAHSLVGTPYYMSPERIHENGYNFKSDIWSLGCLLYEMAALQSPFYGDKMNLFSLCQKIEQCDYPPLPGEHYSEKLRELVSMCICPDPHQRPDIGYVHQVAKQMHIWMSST
Chain of UniProt P49137 (whole entry, looked up): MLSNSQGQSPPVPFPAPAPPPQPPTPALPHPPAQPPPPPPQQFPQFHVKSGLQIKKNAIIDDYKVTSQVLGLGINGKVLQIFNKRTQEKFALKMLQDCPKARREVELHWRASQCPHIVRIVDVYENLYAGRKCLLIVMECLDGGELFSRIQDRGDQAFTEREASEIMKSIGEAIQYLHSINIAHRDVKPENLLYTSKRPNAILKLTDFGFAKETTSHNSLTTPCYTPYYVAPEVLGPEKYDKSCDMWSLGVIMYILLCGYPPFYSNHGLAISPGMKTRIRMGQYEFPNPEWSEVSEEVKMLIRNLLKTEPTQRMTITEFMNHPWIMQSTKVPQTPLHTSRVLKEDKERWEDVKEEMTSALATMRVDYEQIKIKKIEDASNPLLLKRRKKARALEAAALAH
Chain of UniProt Q13523 (whole entry, looked up): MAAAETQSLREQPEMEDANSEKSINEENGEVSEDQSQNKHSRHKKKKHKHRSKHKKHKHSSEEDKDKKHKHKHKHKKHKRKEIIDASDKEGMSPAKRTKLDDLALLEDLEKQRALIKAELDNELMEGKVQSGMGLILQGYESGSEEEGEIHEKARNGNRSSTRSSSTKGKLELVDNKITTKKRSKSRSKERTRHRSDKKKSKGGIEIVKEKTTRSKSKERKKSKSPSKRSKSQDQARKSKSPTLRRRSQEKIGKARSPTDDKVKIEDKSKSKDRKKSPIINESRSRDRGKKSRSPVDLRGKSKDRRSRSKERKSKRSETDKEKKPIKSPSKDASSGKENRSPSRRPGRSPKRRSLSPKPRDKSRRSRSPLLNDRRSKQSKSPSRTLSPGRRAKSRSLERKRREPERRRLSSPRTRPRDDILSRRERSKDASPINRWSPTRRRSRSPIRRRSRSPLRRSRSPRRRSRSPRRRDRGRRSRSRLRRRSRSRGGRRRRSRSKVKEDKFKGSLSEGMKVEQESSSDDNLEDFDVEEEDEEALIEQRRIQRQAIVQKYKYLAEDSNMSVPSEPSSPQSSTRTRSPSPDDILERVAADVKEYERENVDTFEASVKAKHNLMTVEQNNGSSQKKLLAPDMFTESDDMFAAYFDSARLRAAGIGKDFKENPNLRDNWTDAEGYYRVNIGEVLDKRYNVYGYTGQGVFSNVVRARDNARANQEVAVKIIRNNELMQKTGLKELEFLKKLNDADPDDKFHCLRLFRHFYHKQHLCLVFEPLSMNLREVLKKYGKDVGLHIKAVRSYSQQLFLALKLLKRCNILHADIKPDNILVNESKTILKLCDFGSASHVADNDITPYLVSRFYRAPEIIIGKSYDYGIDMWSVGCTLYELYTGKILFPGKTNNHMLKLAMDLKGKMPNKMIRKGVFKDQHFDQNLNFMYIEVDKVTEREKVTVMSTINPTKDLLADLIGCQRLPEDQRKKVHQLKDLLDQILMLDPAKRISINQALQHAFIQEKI
Chain of UniProt Q02763 (whole entry, looked up): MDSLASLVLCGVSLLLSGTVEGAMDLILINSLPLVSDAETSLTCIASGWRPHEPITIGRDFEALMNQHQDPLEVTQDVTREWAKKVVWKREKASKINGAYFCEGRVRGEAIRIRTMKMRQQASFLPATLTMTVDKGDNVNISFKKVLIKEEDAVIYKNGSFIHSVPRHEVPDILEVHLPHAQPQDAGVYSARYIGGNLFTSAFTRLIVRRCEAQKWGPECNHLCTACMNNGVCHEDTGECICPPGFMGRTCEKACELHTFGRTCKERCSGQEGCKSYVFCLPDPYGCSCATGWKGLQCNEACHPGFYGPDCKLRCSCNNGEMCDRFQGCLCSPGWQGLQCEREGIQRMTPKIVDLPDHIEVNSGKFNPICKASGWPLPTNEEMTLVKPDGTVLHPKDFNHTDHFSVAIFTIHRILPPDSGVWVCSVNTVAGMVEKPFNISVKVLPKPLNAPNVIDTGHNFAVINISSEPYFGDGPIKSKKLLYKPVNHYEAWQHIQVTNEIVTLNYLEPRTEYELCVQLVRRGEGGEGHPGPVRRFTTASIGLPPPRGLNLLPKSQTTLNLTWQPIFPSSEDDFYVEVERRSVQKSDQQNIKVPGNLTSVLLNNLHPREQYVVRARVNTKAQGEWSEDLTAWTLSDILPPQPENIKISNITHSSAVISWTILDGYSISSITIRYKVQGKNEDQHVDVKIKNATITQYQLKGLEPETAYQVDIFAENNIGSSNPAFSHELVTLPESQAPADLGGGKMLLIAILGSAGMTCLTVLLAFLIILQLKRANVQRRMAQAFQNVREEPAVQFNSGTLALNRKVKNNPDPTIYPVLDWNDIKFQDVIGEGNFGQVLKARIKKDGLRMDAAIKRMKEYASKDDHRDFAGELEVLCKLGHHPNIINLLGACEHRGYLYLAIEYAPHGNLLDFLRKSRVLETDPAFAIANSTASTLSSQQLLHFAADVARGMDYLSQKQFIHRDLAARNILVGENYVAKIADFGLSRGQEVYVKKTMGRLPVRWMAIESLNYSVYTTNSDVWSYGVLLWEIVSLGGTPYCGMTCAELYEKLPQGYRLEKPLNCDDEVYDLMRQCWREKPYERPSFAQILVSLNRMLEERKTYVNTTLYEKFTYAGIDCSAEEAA
Chain of UniProt P51813 (whole entry, looked up): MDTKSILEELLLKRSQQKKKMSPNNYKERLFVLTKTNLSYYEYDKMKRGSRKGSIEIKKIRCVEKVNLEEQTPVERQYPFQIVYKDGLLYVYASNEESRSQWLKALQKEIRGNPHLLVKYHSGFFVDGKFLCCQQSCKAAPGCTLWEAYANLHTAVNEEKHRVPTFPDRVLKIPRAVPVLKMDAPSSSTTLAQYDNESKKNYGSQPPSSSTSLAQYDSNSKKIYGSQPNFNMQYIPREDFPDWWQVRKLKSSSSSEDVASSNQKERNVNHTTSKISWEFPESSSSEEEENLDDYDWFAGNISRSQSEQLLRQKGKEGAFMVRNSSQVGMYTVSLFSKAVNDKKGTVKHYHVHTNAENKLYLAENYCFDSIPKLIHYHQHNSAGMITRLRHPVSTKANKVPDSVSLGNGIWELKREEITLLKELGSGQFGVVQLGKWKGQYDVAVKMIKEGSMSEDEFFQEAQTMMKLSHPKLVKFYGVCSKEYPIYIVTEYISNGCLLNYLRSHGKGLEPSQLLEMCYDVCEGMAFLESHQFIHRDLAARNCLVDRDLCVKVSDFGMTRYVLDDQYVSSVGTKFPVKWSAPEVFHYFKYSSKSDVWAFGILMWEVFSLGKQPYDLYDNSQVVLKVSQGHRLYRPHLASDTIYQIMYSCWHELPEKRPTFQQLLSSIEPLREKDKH
Chain of UniProt P14616 (whole entry, looked up): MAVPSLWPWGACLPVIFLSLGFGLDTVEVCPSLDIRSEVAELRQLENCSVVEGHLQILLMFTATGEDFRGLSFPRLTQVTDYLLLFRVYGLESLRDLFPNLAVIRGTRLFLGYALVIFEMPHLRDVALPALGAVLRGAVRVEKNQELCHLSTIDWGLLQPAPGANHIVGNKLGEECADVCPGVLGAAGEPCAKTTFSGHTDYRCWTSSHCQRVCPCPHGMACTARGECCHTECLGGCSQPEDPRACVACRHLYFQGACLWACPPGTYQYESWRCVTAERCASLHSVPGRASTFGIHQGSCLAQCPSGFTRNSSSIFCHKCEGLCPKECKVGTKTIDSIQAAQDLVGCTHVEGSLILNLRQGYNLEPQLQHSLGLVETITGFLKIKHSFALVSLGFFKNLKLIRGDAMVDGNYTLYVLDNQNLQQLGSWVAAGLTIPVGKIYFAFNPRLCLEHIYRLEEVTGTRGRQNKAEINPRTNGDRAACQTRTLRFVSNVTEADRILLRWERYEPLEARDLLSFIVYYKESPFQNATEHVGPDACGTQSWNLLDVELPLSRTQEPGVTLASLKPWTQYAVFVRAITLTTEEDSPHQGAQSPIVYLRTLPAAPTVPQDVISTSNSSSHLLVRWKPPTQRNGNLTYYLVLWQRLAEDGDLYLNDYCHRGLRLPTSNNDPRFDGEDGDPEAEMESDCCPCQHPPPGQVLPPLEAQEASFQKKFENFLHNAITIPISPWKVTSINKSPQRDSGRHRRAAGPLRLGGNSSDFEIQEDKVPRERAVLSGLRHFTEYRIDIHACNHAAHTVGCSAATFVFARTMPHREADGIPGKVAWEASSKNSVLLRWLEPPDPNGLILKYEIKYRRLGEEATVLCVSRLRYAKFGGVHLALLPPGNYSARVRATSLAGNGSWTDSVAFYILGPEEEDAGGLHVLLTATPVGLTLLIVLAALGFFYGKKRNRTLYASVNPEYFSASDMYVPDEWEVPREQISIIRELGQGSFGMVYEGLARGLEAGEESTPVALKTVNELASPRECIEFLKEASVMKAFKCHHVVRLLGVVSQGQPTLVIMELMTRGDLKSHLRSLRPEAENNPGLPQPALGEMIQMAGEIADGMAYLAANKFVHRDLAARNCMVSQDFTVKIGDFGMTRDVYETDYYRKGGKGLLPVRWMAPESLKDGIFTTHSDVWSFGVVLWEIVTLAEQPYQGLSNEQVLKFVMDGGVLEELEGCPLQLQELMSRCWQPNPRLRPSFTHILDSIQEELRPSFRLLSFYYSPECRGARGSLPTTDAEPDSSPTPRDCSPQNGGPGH

Study 1
Compound: O=C(N1CCS(=O)(=O)CC1)N1C[C@H](c2ccc(OC(F)(F)F)cc2)C[C@H](c2nc(C3CC3)no2)C1
Read-out: cell-free assay
Method: competition with immobilised ligand
Tested at: 1 µM
| target | remaining binding |
| --- | --- |
| FRK (Homo sapiens, UniProt P42685) | 100% |
| PRPF4B (Homo sapiens, UniProt Q13523) | 97% |
| PRKCQ (Homo sapiens, UniProt Q04759) | 86% |
| INSRR (Homo sapiens, UniProt P14616) | 97% |
| PRKACB (Homo sapiens, UniProt P22694) | 100% |
| CDK3 (Homo sapiens, UniProt Q00526) | 96% |

Study 2
Compound: O=c1c2ccccc2[nH]c(=S)n1CCN1CCC(=C(c2ccc(F)cc2)c2ccc(F)cc2)CC1
Read-out: enzyme activity
Mode: inhibitor
Tested at: 0.5 µM
| target | how to read | remaining activity [%] |
| --- | --- | --- |
| GRK7 (Homo sapiens, UniProt Q8WTQ7) | baseline: control | 111 |
| TEK (Homo sapiens, UniProt Q02763) | baseline: control | 96.1 |
| FGFR1 (Homo sapiens, UniProt P11362) | baseline: control | 105 |
| BMX (Homo sapiens, UniProt P51813) |  | 85.5 |
| WEE1 (Homo sapiens, UniProt P30291) | baseline: control | 93 |
| JAK3 (Homo sapiens, UniProt P52333) | baseline: control | 104 |
| MAP3K5 (Homo sapiens, UniProt Q99683) | baseline: control | 98.1 |
| NEK1 (Homo sapiens, UniProt Q96PY6) | baseline: control | 109 |
| MAPKAPK2 (Homo sapiens, UniProt P49137) | baseline: control | 106 |
| NEK6 (Homo sapiens, UniProt Q9HC98) | baseline: control | 96.2 |
| FGFR3 (Homo sapiens, UniProt P22607) | baseline: control | 99.3 |

Study 3
Structure (SMILES): COc1ccc(-c2c(Nc3ccccn3)[nH]c3c(C4=CCCCC4)c(-c4ccccc4)nn3c2=O)cc1
Matrix: plasma
Route: oral
| assay | system | conditions | plasma concentration, geometric mean [ng/mL] |
| --- | --- | --- | --- |
|  | human patients | 200 mg once daily, 2 h, cycle 1 | 5210 |
| LC-MS/MS | human | 200 mg twice daily, 24 h | 12000 |
|  | cancer patients | 150 mg, 2 h post-dose, single dose | 1160 |
|  | human patients | 400 mg once daily, 24 h, cycle 1 | 1690 |
|  | cancer patients | 50 mg, 8 h post-dose, single dose | 376 |

Study 4
Organism: Sarcocystis neurona
Read-out: parasite activity
Tested at: 10 µM
Time: 96 h
| Structure (SMILES) | activity class |
| --- | --- |
| N[C@@H](C(=O)N[C@@H]1C(=O)N2C(C(=O)O)=C(Cl)CS[C@H]12)c1ccccc1 | inactive |
| CCN(CC)CCOc1ccc(C(=C(Cl)c2ccccc2)c2ccccc2)cc1 | inactive |
| CC(=O)Oc1ccccc1C(=O)Nc1ncc([N+](=O)[O-])s1 | inactive |
| CC1(C)O[C@@H]2C[C@H]3[C@@H]4C[C@H](F)C5=CC(=O)C=C[C@]5(C)[C@@]4(F)[C@@H](O)C[C@]3(C)[C@]2(C(=O)CO)O1 | inactive |
| COC(=O)CCc1ccc(OCC(O)CNC(C)C)cc1 (stereo not drawn) | inactive |

A few entries again (study 4):
| Structure (SMILES) | activity class |
| --- | --- |
| CCN(CC)CCOc1ccc(C(=C(Cl)c2ccccc2)c2ccccc2)cc1 | inactive |
| CC(=O)Oc1ccccc1C(=O)Nc1ncc([N+](=O)[O-])s1 | inactive |
| CC1(C)O[C@@H]2C[C@H]3[C@@H]4C[C@H](F)C5=CC(=O)C=C[C@]5(C)[C@@]4(F)[C@@H](O)C[C@]3(C)[C@]2(C(=O)CO)O1 | inactive |
| COC(=O)CCc1ccc(OCC(O)CNC(C)C)cc1 (stereo not drawn) | inactive |
